Results gathered from unrelated publications.
Lines come from different studies, so protocols differ. Values joined by “and” are separate records of one study, mostly repeats; a detail may differ. ± gives the spread as reported.

| SMILES | test | test system | setting | scale | quantity | result |
| --- | --- | --- | --- | --- | --- | --- |
| CN(CC(F)(F)F)C(=O)CN1CN(c2ccccc2)C2(CCN(C(=O)c3ccc4[nH]ncc4c3)CC2)C1=O | – | mouse liver microsomes | – | – | CLint | 340 µL/min/mg protein |
| O=C(Nc1ccc(C2CCCCC2)cc1)C1CC1 | hepatocyte stability | cryopreserved rat hepatocytes | 1 µM | – | hepatic clearance | 48 mL/min/kg |
| CC(C)C[C@H](NC(=O)[C@H](CCCN)NC(=O)CNC(=O)[C@@H](NC(=O)[C@H](C)NC(=O)[C@@H]1CSCSC[C@H](NC(=O)CC[C@H](N)C(=O)O)C(=O)N[C@@H](CC(N)=O)C(=O)N[C@@H]([C@@H](C)O)C(=O)N[C@@H](C)C(=O)N[C@@H]([C@@H](C)O)C(=O)N1)[C@@H](C)O)C(=O)N[C@@H](C)C(=O)N[C@@H](CCC(=O)O)C(=O)N[C@@](C)(Cc1ccccc1)C(=O)N[C@@H](CC(C)C)C(=O)N[C@H](C(=O)N[C@@H](CCCNC(=N)N)C(=O)N[C@@H](CO)C(=O)N[C@@H](CO)C(=O)N[C@@H](CC(N)=O)C(=O)N(C)[C@@H](CC(N)=O)C(=O)N[C@@H](Cc1ccccc1)C(=O)NCC(=O)N1CCC[C@H]1C(=O)N[C@@H](CCCCNC(=O)CC[C@H](NC(=O)CC[C@H](NC(=O)CCCCCCCCCCCCCCCCCCC(=O)O)C(=O)O)C(=O)O)C(=O)N[C@@H](CC(C)C)C(=O)N1CCC[C@H]1C(=O)N1CCC[C@H]1C(=O)N[C@H](C(=O)N[C@@H](CCC(=O)O)C(=O)N[C@H](C(=O)NCC(=O)N[C@@H](CO)C(=O)N[C@@H](CC(N)=O)C(=O)N[C@H](C(=O)N[C@@H](Cc1ccc(O)cc1)C(N)=O)[C@@H](C)O)C(C)C)[C@@H](C)O)C(C)C | – | healthy human, plasma | subcutaneous, 0.4 mg | – | AUC(0-inf) | 22.8 µg·h/mL |
| O=C(CCC(F)(F)F)Nc1ccc(C2CCCCC2)cc1 | liver microsome stability | mouse liver microsomes | 1 µM | – | hepatic clearance | 84 mL/min/kg |
| O=C(N1CCCCC1)C12CC(c3ccccc3)(C1)C2(Cl)Cl | metabolic stability | human, liver microsomes | 2 µM, 7 min, pH 7.4 | – | compound remaining | 96% |
| OC1(C(F)(F)F)CCN(c2nc(Nc3ccnc(C(F)(F)F)c3)nc(-c3cccc(C(F)(F)F)n3)n2)C1 (centres unmarked) | – | monkey, plasma | oral, 10 mg/kg | – | Cmax | 2490 ± 587 ng/mL |
| COC(=O)[C@@]1(C)C=C(C(=O)Nc2cccc(C(=O)Nc3ccc(Nc4nccc(-c5cccnc5)n4)c(C)c3)c2)C(=O)CC1 | metabolic stability | Wistar rat, male, primary hepatocytes | 1 µM, 20 min | – | compound remaining | 38.4% |
| CCCCCC(=O)[O][Pt]([Cl])([Cl])[O]C(=O)CCCCC.N.N | ICP-MS, item: platinum | nude mice, blood | intravenous, equimolar single dose | – | CL2 | 8.74e-05 mg/(ng/mL)/h |
| c1ccc2cc3c(ccc4ccccc43)cc2c1 | – | developing zebrafish, liver | – | – | hepatic clearance | 5760 mL/min/kg |
| CCC1=[N+]2N=C(/C=C/C=C/c3ccccc3)C(=O)O[B-]2(c2ccccc2)Oc2cc(N(CC)CC)ccc21 (centres unmarked) | – | toluene | – | – | fluorescence quantum yield | 0.32 |
| COc1cnc2cccc(N3CCc4c(cc(Cn5ccnc5)cc4-c4cn(C)nc4C(F)(F)F)C3=O)c2c1 | – | CD-1 mouse, male, plasma | intravenous, 3 mg/kg | – | AUC extrapolated | 0.4% |
| COc1cccc(OC)c1-c1cc(C(=O)NC2(C(=O)O)C3CC4CC(C3)CC2C4)nn1-c1ccc(C(=O)N(C)CCOCCOCCN(C)C(=O)[C@H](CCCCNC(=O)[C@H](CC(C)C)NC(=O)C2OC2C(=O)O)NC(=O)CN2CCN(CC(=O)[O-])CCN(CC(=O)[O-])CCN(CC(=O)[O-])CC2)cc1C(C)C.[177Lu+3] (mixture of isomers) | – | mouse, HT-29 xenograft | 168 h post injection, biodistribution | reference: tumour over kidney uptake | tumour-to-kidney ratio | 0.49 |
| C=CC(=O)Nc1cc(Nc2nccc(-c3c[nH]c4ccccc34)n2)c(OC)cc1N(C)CCN(C)C | storage stability | human dried blood spot samples | 30 d, -80 °C, HQC level | reference: nominal concentration | percentage recovery | 46.6% |
| CNC(=O)c1ccc(C2CCCCC2)cc1 | liver microsome stability | mouse liver microsomes | 1 µM | – | hepatic clearance | 87 mL/min/kg |
| COC1C=COC2(C)Oc3c(C)c(O)c4c(c3C2=O)C2=NC3(CCN(CC(C)C)CC3)NC2=C(NC(=O)C(C)=CC=CC(C)C(O)C(C)C(O)C(C)C(OC(=O)Nc2cccnn2)C1C)C4=O (centres unmarked) | – | CD-1 mouse female, plasma | oral, 10 mg/kg | – | fAUC/MIC ratio | 63.5 |
| C=C(NC(=O)c1csc(-c2nc3c(cc2O)-c2nc(cs2)C(=O)NC(C(C)O)C(=O)NC(=C(C)OC)c2nc(cs2)C(=O)NC2c4nc(cs4)C(=O)NC(COC(=O)c4c5c6c(cccc6n4O)COC(=O)C(OC4CC(C)(O)C(N(C)C)C(C)O4)C2OC5)c2nc-3cs2)n1)C(N)=O (centres unmarked) | – | female Sprague-Dawley rat, plasma | intravenous, 18 mg/kg, single dose, infusion | – | half-life | 6.24 h |
| CS(=O)(=O)c1ccc(-c2ccc(C3CCCCC3)cc2)cn1 | liver microsome stability | human liver microsomes | 1 µM, without NADPH | – | hepatic clearance | 8.3 mL/min/kg |
| Cc1noc(C)c1Cn1cc(N2C(=O)CN(Cc3cccc(OS(=O)(=O)O)c3)C2=O)cn1 | – | Sprague-Dawley rat, male | oral, 100 mg/kg of parent drug, 4 h | – | plasma concentration | 6110 ng/mL |
| C=C1C[C@]2(C(=O)OC)C=C(C(=O)Nc3cccc(C(=O)Nc4ccc(Nc5nccc(-c6cccnc6)n5)c(C)c4)c3)C(=O)[C@H]1C2 | – | Wistar rat, male, plasma | 10 µM, 20 min | – | compound remaining | 4.28% and 2.02% |

| SMILES | test | test system | setting | scale | quantity | result |
| --- | --- | --- | --- | --- | --- | --- |
| O=C(Nc1cnccc1-c1ccc([18F])nc1)c1ccnc(NC(=O)C2CC2)c1 | – | FVB/NJ mouse, both sexes, liver | intravenous, 40 min | – | SUV | 8.66 |
| COc1cccc(OC)c1-c1cc(C(=O)NC2(C(=O)O)C3CC4CC(C3)CC2C4)nn1-c1ccc(C(=O)N(C)CCOCCN(C)C(=O)[C@H](CCCCNC(=O)[C@H](CC(C)C)NC(=O)C2OC2C(=O)O)NC(=O)CN2CCN(CC(=O)[O-])CCN(CC(=O)[O-])CCN(CC(=O)[O-])CC2)cc1C(C)C.[177Lu+3] (mixture of isomers) | – | mouse, HT-29 xenograft | 72 h post injection, biodistribution | reference: tumour over blood uptake | tumour-to-blood ratio | 3.64 |
| CCn1nc(Cl)c2c1-c1cnc(N)c(c1)O[C@H](C)c1cc(F)ccc1-c1nn(C)cc1C2 | – | Balb/c nude mouse female, plasma | 0.06 mg/kg twice daily for 5 days, 1 h | – | free plasma concentration | 0.43 nM |
| CSCCC(C(=O)Nc1ccc2c(c1)OCCO2)N1Cc2ccccc2C1=O (centres unmarked) | PAMPA | brain lipid membrane | 10 µM, 4 h | – | permeability coefficient | 14.4 ×10⁻⁶ cm/s |
| CN(C(=O)C(C)(C)c1cc(C(F)(F)F)cc(C(F)(F)F)c1)c1cnc(N2C[C@H]3COCCN3C[C@H]2CO)cc1-c1ccc(F)cc1CO | – | healthy male human | oral, 120 mg, up to 480 h cumulative | reference: dose | amount excreted in faeces | ~3% and 3.13% |
| COc1cc2c(cc1O)CCN1C[C@@H](CC(C)C)[C@@H](O)C[C@H]21 | item: non-deuterated analyte | healthy human male, plasma | oral, 25 mg, median, [14C]-tetrabenazine dosed | – | Tlag | 0.5 h |
| CCC1=[N+]2N=C(c3ccccc3)C(=O)O[B-]2(c2ccccc2)Oc2cc(N(CC)CC)ccc21 (centres unmarked) | – | toluene | – | – | fluorescence emission maximum | 509 nm |
| [123I]c1ccc2nc(-c3ccc(-n4ccnn4)nc3)cn2c1 | – | male Wistar rat, liver | intravenous, 4 MBq, 30 min | – | tracer uptake | 1.22 %ID/g |
| Cc1nc(N)nc2c1C(=O)N[C@@H](c1ccc(F)cc1-c1cccc(O[11CH3])n1)C2 | ex vivo biodistribution | mice, U87 subcutaneous xenograft, heart | 60 min post-injection, baseline, vehicle pre-treatment | – | SUV | 1.7 ± 0.1 |
| COc1ccc2c(c1)CN(C(=O)CCN1CCC(Cc3ccccc3)CC1)CC[S+]2[O-] (centres unmarked) | – | human plasma | 750 ng/mL | – | fu | 0.162 |
| COc1cccc(OC)c1-c1cc(C(=O)NC2(C(=O)O)C3CC4CC(C3)CC2C4)nn1-c1ccc(C(=O)N(C)CCCN(C)CCCN(C)C(=O)[C@H](CCCCNC(=O)[C@H](CC(C)C)NC(=O)C2OC2C(=O)O)NC(=O)CN2CCN(CC(=O)[O-])CCN(CC(=O)[O-])CCN(CC(=O)[O-])CC2)cc1C(C)C.[177Lu+3] (mixture of isomers) | – | mouse, HT-29 xenograft | 168 h post injection, biodistribution | reference: tumour over bone uptake | tumour-to-bone ratio | 9.75 |
| CC(=O)Nc1ccc([C@H]2[C@@H](F)[C@@H](F)C[C@@H](F)[C@H]2F)cc1 | liver microsome stability | rat liver microsomes | 1 µM | – | hepatic clearance | 20 mL/min/kg |
| CN1CCC[C@]1(C)/C=C/S(=O)(=O)NC(=O)Nc1c2c(cc3c1CCC3)CC=C2 | – | human, plasma | oral, 12.5 mg twice daily of parent drug, day 14, metabolite of dosed drug | – | AUC(0-inf) | 203 µg·h/mL |
| C#Cc1c(F)ccc2cc(O)cc(-c3ncc4c(N5CC6CCC(C5)N6C(=O)OC(C)OC(=O)CC[C@@H](C)[C@H]5CC[C@H]6[C@@H]7CC[C@@H]8C[C@H](O)CC[C@]8(C)[C@H]7C[C@H](O)[C@]56C)nc(OC[C@@]56CCCN5C[C@H](F)C6)nc4c3F)c12 (some centres unmarked) | item: prodrug | mouse whole blood | 1 µM | – | t1/2 | 1.78 min |
| CC(C(=O)O)n1nc(Cn2cc3cc(OCC[18F])c(Cl)cc3n2)c2ccccc2c1=O (racemic) | – | rat, bone | 2 h | – | tracer uptake | 0.1 %ID/g |
| CCCC[C@H](OC(C)=O)c1ccccc1C(=O)O | – | Sprague-Dawley rats, both sexes, whole blood | intravenous, 20 mg/kg single dose | – | MRT(0-t) | 2.1 ± 0.18 h |
| O=C(Nc1ccc([C@H]2[C@@H](F)[C@@H](F)C[C@@H](F)[C@H]2F)cc1)C1CC1(F)F (some centres unmarked) | hepatocyte stability | cryopreserved human hepatocytes | 1 µM | – | hepatic clearance | 14 mL/min/kg |
| C=CC(=O)Nc1cc(Nc2nccc(-c3cn(C)c4ccccc34)n2)c(OC)cc1N(C)CCNC | storage stability | human plasma | 10 d, -80 °C, LQC level | – | recovery | 102% |
| CC(=O)N([O-])CCCCCNC(=O)CCC(=O)N([O-])CCCCCNC(=O)CCC(=O)N([O-])CCCCCN.[89Zr+4] | – | mouse, blood | 4 h | – | tracer uptake | 0.07 %ID/g |

A few entries again:
| SMILES | test | test system | setting | scale | quantity | result |
| --- | --- | --- | --- | --- | --- | --- |
| CC(C)C[C@H](NC(=O)[C@H](CCCN)NC(=O)CNC(=O)[C@@H](NC(=O)[C@H](C)NC(=O)[C@@H]1CSCSC[C@H](NC(=O)CC[C@H](N)C(=O)O)C(=O)N[C@@H](CC(N)=O)C(=O)N[C@@H]([C@@H](C)O)C(=O)N[C@@H](C)C(=O)N[C@@H]([C@@H](C)O)C(=O)N1)[C@@H](C)O)C(=O)N[C@@H](C)C(=O)N[C@@H](CCC(=O)O)C(=O)N[C@@](C)(Cc1ccccc1)C(=O)N[C@@H](CC(C)C)C(=O)N[C@H](C(=O)N[C@@H](CCCNC(=N)N)C(=O)N[C@@H](CO)C(=O)N[C@@H](CO)C(=O)N[C@@H](CC(N)=O)C(=O)N(C)[C@@H](CC(N)=O)C(=O)N[C@@H](Cc1ccccc1)C(=O)NCC(=O)N1CCC[C@H]1C(=O)N[C@@H](CCCCNC(=O)CC[C@H](NC(=O)CC[C@H](NC(=O)CCCCCCCCCCCCCCCCCCC(=O)O)C(=O)O)C(=O)O)C(=O)N[C@@H](CC(C)C)C(=O)N1CCC[C@H]1C(=O)N1CCC[C@H]1C(=O)N[C@H](C(=O)N[C@@H](CCC(=O)O)C(=O)N[C@H](C(=O)NCC(=O)N[C@@H](CO)C(=O)N[C@@H](CC(N)=O)C(=O)N[C@H](C(=O)N[C@@H](Cc1ccc(O)cc1)C(N)=O)[C@@H](C)O)C(C)C)[C@@H](C)O)C(C)C | – | healthy human, plasma | subcutaneous, 0.4 mg | – | AUC(0-inf) | 22.8 µg·h/mL |
| CN(CC(F)(F)F)C(=O)CN1CN(c2ccccc2)C2(CCN(C(=O)c3ccc4[nH]ncc4c3)CC2)C1=O | – | mouse liver microsomes | – | – | CLint | 340 µL/min/mg protein |
| C=C1C[C@]2(C(=O)OC)C=C(C(=O)Nc3cccc(C(=O)Nc4ccc(Nc5nccc(-c6cccnc6)n5)c(C)c4)c3)C(=O)[C@H]1C2 | – | Wistar rat, male, plasma | 10 µM, 20 min | – | compound remaining | 4.28% and 2.02% |
